Measured values pooled from the literature.
Numbered parts are unrelated; each lists some results of a single study. Changes are numbered by the printed parent chain.

Set 1
Target: RNA binding protein fox-1 homolog 2, RRM domain, GST-SBP tag (RBFOX2, Homo sapiens, UniProt O43251-10, residues 100-194)
Technique: RNA Bind-n-Seq
Form: RNA
Medium: in vitro
Concentration: 365 nM
Notes: natural RNA segment, single round, ends assumed
Relative to: no-protein control
Reading: higher = stronger binding
Construct (chain): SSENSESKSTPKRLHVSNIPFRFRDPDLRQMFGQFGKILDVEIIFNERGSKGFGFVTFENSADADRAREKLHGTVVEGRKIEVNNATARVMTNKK
Oligonucleotide	RBNS enrichment (R)
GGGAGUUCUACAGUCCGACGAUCAAGACAGCCUUCCACUAGAGGCUGAAGCCAGGAAGCAGACAGUUGCUGUCCUUAUUCCUGUUAAAAGCCUCUGGCACUAUGAACAACGCAGUGUGGGGACAGUGGGUGACUGGAAUUCUCGGGUGCCAA	0.338
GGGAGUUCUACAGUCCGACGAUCACCACAGACAGUACCCACGCUACCAGUCUGAUUAUAAAGGGAGACACUUUAUUUUUUCACAAUUAAAUAAGAAUUGUAGAUUAAUACACCUCUAUCUUGCAUGGGAAGGAUGGAAUUCUCGGGUGCCAA	1.15
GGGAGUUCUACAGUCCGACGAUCAAAUAUGCCCAGAAUAGAAAAGCUAUGUUGGGGCACAUGUCCUGCAAAUAUGGCCCUAGAAACAAGUGAUAUGGAAUUUACUUGGUGAAUAAGUUAUAAAUUCCCACAGAUGGAAUUCUCGGGUGCCAA	0.463
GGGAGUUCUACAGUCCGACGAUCGGGUGACUGUGUGUGAUGUGCAGAGUCCUUGGACAGGAGUCGGGGGCUCCUCUGUCCCACUGCUGCUUCUUGAGUGGGUGGAGUGGUGCUUAGAGGAUCUCCGAGAGGUCUGGAAUUCUCGGGUGCCAA	2.77
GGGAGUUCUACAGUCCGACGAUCGACAUGGCAUGAAGCCAGAGAGUGAGAGACAUUAACUCAUUAGACUGGAACUUGAACUGAUUCACAUCUCAUUUUUCCGUAAAAAUGAUUUCAGUAGCACAAGUUAUUUAUGGAAUUCUCGGGUGCCAA	0.693
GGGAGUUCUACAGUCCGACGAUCGGUUGGGGGACAGCCUUCAGCAGCAGCUCACACCCUACCUUCCCCAGACUUGCACUGGGGUGGGAUUUGGAGUGAUGGGAAGGUUUUUAAGGGCCGGGGAUGGAUCUUUUUGGAAUUCUCGGGUGCCAA	0.407
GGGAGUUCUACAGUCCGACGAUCUUUCCUGCAGAGUUCUUUGUAUCAACAGCCUAUGGUUGAGAUGUUUUCUCAUUUCCUGUAGAGAGAGAAUACCACUAACAAACAAACAAAAACUUUAGUGCCAAAAUAGUUGGAAUUCUCGGGUGCCAA	0.504
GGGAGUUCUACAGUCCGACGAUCCCACGGCUGGACAGCUGUUCUCUCCUCCUAUCCCACCGCUUCCCCUAAUAAAGGGACUGUUCUUUUGUUGCCUUGCUGUUUUUCCUUUACUAGUGGGCAGCUGCCGGGGGUGGAAUUCUCGGGUGCCAA	2.52
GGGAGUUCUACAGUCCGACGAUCAAAAAUACUGUGGACACUUAAAUAAUGGGCUAGUUUCUUACAAUGAAAUGUUCUCUAGGAUUCUAAAAUAGGCAGGUACUUUACUAUGUUACUGUACCCUGCAGUGUUGAUGGAAUUCUCGGGUGCCAA	0.381
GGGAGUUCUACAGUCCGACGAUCAAAAAAUCCUCUAUUGUAUAUUUAUUCAACAACUGUUUAUGUUUCCAGGACAACUGCAAAGAAAACAAGCUGAGGUGGUUAUACUGUUGCUGUUAAAAGUUGGUAUCAGUUGGAAUUCUCGGGUGCCAA	0.338
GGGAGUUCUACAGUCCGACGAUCGACCAGGCUCUAGCUCUGGGCCCUCCUUCAGCCCCCAUCAUGGGAAUAAAUUAAUUUUCUCAAUGUACAUAUUUGAGUUAUUAUAUGGAAAGAGUGCACGUUUGCAAGGAUGGAAUUCUCGGGUGCCAA	0.806
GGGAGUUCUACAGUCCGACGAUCCCUUUCCUUUCUUGGGGCACUGUUGCUGUGGCACUUUUCUAUAACCUUGUCAUUCCUAUGUACAGUAGCUGGAAGUCGCAGUGAGCAAGCAUAACCCACGUUUGUAUAAAUGGAAUUCUCGGGUGCCAA	0.407

Set 2
Target: Prothrombin, mature alpha-thrombin (F2, Homo sapiens, UniProt P00734)
Technique: aptamer microarray, sandwich
Form: DNA with 2'F-ANA
Medium: in vitro
Concentration: 200 nM
Notes: whole 15-mer aptamer, many near background
Together with: Cy3 exosite-II aptamer, 400 nM
Reading: higher = stronger binding
Oligonucleotide: GGTTGGTGTGGTTGG
Modification	mean fluorescence intensity [a.u.]
2'F-ANA at 4 5 6 8 10 11 12 14	53.6
2'F-ANA at 4 5 6 9 10 13 14	75.1
2'F-ANA at 1 4 7 9 10 15	51.8
2'F-ANA at 1 2 3 4 8 11	190
2'F-ANA at 3 7 9 11 12 13	1070
2'F-ANA at 2 4 5 6 8 10 12 13	56.6
2'F-ANA at 2 3 5 6 7 8 9 15	101
2'F-ANA at 5 8 10 12 14 15	46.7
2'F-ANA at 1 6 8 9 10 11 13	52.4
2'F-ANA at 2 6 10 11 14 15	92.5
2'F-ANA at 3 4 5 7 8 9 10 14 15	54.5
2'F-ANA at 1 4 5 8 9 10 11 12 14	47.5
2'F-ANA at 3 6 8 9 10 12 13 14	329
2'F-ANA at 1 6 8 10 12 13 14	46.8
2'F-ANA at 1 2 3 4 6 11 12 14 15	65.5
2'F-ANA at 4 6 9 10 11 12 13 14	151
2'F-ANA at 2 4 6 10 13 14	121
2'F-ANA at 3 4 5 6 8 9 10 11 12 13 15	187
2'F-ANA at 1 3 5 9 12 15	128
2'F-ANA at 5 6 7 10 14	42.9
2'F-ANA at 6 7 10 12 13	171
2'F-ANA at 2 3 6 10 11 13	302
2'F-ANA at 3 4 7 8 11 13	672
2'F-ANA at 1 3 4 6 7 8 12 14	99.3
2'F-ANA at 1 2 3 4 6 8 11 13 15	126

Set 3
Target: CCNF, cyclin fold, Cln2 fusion (human)
Technique: yeast growth competition, sequencing
Medium: yeast
Notes: strong parent motif
Relative to: not given
Reading: higher = stronger binding
Starting sequence: CDKN1A docking peptide (human); SKACRRLFGPVDS
Change	normalised enrichment score
SKACRELFGPVDS [R6E]	5.73
SMACRRLFGPVDS [K2M]	7.58
SKACRRLFMPVDS [G9M]	8.05
SKACRGLFGPVDS [R6G]	1.92
SKACRRLEGPVDS [F8E]	0.26
SKACRRLTGPVDS [F8T]	-0.14
SKACRRLFGPVIS [D12I]	7.38
SKACRRLFGPMDS [V11M]	7.5
SKACTRLFGPVDS [R5T]	0.76
SKACRRLRGPVDS [F8R]	0.433
SKASRRLFGPVDS [C4S]	5.87
SKACERLFGPVDS [R5E]	-0.0494
SKACRRLFGVVDS [P10V]	6.47
SKACRRLFVPVDS [G9V]	7.14
SKRCRRLFGPVDS [A3R]	1.91
SKACFRLFGPVDS [R5F]	0.452
SKACRRLFGFVDS [P10F]	6.29
SKACRRLFGPCDS [V11C]	7.58
SKACRRLFGPSDS [V11S]	7.52
SKACARAFGPVDS [R5A L7A]	0.644
SKSCRRLFGPVDS [A3S]	5.35
SKACRRLFGPVES [D12E]	7.18
SKACRRLFGPQDS [V11Q]	7.78
SKACRFLFGPVDS [R6F]	2.24
SKKCRRLFGPVDS [A3K]	2.06

Set 4
Target: RING finger protein unkempt homolog, zinc fingers 1-6, GST-SBP tag (UNK, Homo sapiens, UniProt Q9C0B0, residues 30-357)
Technique: RNA Bind-n-Seq
Form: RNA
Medium: in vitro
Concentration: not given
Notes: RNA with constant flanks, human-mouse chimeric sites, ends assumed
Relative to: input RNA pool
Reading: higher = stronger binding
Construct (chain): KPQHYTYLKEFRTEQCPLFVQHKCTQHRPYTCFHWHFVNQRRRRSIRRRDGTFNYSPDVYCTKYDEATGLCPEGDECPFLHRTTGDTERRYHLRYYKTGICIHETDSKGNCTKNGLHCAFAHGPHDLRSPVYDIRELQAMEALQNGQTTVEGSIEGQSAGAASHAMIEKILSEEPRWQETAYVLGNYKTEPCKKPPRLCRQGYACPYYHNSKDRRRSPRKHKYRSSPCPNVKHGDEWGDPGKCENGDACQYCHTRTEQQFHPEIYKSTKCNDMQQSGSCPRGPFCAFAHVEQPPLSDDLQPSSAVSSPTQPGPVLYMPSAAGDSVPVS
Oligonucleotide	bound/input enrichment [ratio]
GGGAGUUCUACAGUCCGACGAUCAGAAUCUUGGGACUGUUUUACUUAAUUGGUCAUUGAUAGCUUAACAAACAUGGAGAUAAGAUUAGAAAUCUUGACAUCAACAGGUAUUAAGCAGAAAAAACCCUGGCCCAGAGUAUCCUGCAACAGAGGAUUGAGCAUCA	0.136
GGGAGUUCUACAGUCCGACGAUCGUGACUGGUGUUAAGAUUUCCCCUCAGCAAAGAAGUGCAGUAGUCACCAUAAUUCCAUCUAUAGUGAGUGCCAGUCAGAUUGUGGAGCUGGUCCCAGACCUCAGUUUAGAUACUGGGACUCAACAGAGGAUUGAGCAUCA	1.08
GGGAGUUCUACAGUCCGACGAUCUUUCUACUGCAGCAAACGAUGCUAAGAAUUAAGGAUCCUAAGAAGUCCCUGGAUUUUUAUACGAGGGUUCUUGGAAUGACGCUAAUCCAGAAGCUUGACUUCCCUGCUAUGAAGUUCUCGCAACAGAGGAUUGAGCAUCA	0.136
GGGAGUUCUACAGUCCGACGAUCGGUGGGGGGUUGUCAUUCGUUUGAGCUGCUGAUUUUCUUAUGAAUCAUUCAAAACUCUCGUGUAGGGUUGACAAUGUGGGGGGGUGGGGGAUCCAGCUUAUUCUUUUAUUUUCAAGUCCACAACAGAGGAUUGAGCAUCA	0.985
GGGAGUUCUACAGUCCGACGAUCUUACCCGAGAACGAGGAUGAGCUGGAGAGCACCAACAGGCGCUACACCAAGAGGGACUGUAGCACUUUUCUCAGAACUAGUGAGACGGGCAUCGUGGACCAGGUCAUGGUCACUCUCAACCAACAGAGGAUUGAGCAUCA	0.224
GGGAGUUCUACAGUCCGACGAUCAACAGAUUGUCUUUAAGCAUUCCAAGCGAGAAUGCUGGGGUGAUCAUAAUUACCCACGUGCCUUCUGUAAUAGAUGGAAUGCUGUUCCAUGUUACAUCUUUCCUUCACUCCAGAAUUGUUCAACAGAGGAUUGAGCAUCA	0.111
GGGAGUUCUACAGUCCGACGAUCAAAGAGUGGAUAGAAUGUGCACAUGGAAUCGGUGGGACCCGGGCGAAAAAGGAGUGCAAGAUAGAGUUCGAUGACUUCGAAGAGUGCUUGCUUCGGUACAAAACGAUGAGGCGAAUGCAUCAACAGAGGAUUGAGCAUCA	0.402
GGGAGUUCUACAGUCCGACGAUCCUGUGACCACAAGAUCCUACCUGAGUGUUCAGAUGGGUUGACUCCCUCUCCUUGCCUGAACCCCCCCCCACUGCCCCCCCAUCCCCCAGUGUCGGCUGAGAUGUUGCCAGCAGACAGUUCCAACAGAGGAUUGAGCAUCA	0.33
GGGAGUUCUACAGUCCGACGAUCCGCCUGGAUGAGGCUGGUGUCACAGAUGAAGUGCUAGAUUCUGCCAUGCAAGCCUUCCUUCUGGAGGUCAUUGUUAAACAUGGGGAGCCGGCACCUUAUUUAUGUAACAAAGAUCCGUUUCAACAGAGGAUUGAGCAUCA	0.0899
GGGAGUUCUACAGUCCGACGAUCGCAAAGGAUGAUGAGGCGGCAGCUGUUGCACUUUCCUCUCUCGUUCAUGCUUUGGAUGAGUUAAACAUGGUCGCCAUCGUCCGAUAUGCUUAUGACAAAAGAUCUAAUCCUCAAGUUGGUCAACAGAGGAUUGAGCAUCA	0.195
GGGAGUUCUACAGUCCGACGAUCACCAUUUUCGCGGUUCAGGCUUUGUGUGUAGUUCACUUACGGUAUUAAAUUAUUAUUCUGCUUAGCUUAUAAUAAGGAUAAUUGCAUUUAAAGAGGUGAUCACUGAAUGUUAUUGUUCUUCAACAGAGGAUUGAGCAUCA	9.26
